Measured values from different studies.
Each numbered part is a random draw from the data of one study; scales do not carry over between parts. Changes are numbered by the printed parent chain.
UniProt P43250, sequence (whole entry, looked up): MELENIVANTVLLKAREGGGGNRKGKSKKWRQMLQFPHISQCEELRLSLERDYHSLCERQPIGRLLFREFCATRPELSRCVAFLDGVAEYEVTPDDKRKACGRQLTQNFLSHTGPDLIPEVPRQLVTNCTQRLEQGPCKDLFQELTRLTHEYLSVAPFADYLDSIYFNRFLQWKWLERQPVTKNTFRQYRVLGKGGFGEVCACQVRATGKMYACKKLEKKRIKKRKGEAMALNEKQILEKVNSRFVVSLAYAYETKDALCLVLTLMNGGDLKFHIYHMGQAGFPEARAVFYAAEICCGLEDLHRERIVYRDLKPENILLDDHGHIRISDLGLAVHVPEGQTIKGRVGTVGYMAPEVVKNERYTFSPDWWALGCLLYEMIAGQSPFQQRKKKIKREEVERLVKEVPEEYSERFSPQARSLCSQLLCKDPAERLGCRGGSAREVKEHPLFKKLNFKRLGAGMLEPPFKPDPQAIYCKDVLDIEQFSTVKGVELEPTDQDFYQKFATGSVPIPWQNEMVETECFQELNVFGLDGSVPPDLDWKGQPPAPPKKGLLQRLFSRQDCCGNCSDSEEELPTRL

Series 1 — target: BATF, bZIP domain (human); technique: DHFR protein complementation; medium: yeast; baseline: wild-type JUN-FOS pair; reading: higher = stronger binding
Setting: single substitutions, most at no-binding floor
Parent: JUN, bZIP domain (human); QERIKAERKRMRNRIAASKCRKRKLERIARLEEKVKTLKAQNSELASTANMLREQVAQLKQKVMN; partner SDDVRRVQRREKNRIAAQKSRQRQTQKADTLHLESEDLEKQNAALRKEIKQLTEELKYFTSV
Substitution	binding fitness [natural log]
V35E	-0.642
R30K	-0.0806
Q58S	0.0279
E54F	-0.198
L59R	-0.539
S43W	-0.121
S43C	-0.0314
A46V	0.0238

Series 2 — technique: RNA Bind-n-Seq; molecule type: RNA; medium: in vitro; concentration: not given; baseline: input RNA pool; reading: higher = stronger binding
Target: RING finger protein unkempt homolog, zinc fingers 1-6, GST-SBP tag (UNK, Homo sapiens, UniProt Q9C0B0, residues 30-357)
UniProt Q9C0B0, sequence (30-357, looked up): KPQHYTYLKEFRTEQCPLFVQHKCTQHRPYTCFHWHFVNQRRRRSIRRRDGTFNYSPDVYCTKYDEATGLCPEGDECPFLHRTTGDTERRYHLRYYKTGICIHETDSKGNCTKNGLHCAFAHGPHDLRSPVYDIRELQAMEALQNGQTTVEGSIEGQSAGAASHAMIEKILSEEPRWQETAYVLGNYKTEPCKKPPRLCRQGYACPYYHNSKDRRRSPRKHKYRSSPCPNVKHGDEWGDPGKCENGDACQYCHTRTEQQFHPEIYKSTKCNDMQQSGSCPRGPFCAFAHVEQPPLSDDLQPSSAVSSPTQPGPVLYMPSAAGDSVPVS
Setting: RNA with constant flanks, human and mouse sites, ends assumed
Constant ends, left off below: GGGAGUUCUACAGUCCGACGAUC … CAACAGAGGAUUGAGCAUCA
Sequence	bound/input enrichment
GAAGAAAGCAAUAAAUUCUAUAAGGACAAUAUUAAGGCUGGUCAGCAGGGGUUGUCUGUUGCCUUUGACUUGGCAACACAUCGUGGUUAUGAUUCAGACAACCCCAGAGUUCGUGGAGAU	0.2 ratio
GCUCUUGCUUAUGGAAUCUAUAAACAAGACCUUCCUGCCUUAGAAGAAAAACCAAGAAAUGUAGUUUUUGUAGAUAUGGGACAUUCUGCCUAUCAAGUUUCUGUAUGUGCAUUUAAUAAA	2.68 ratio
UCAGUCUAAGUCACAAAAAUAUCCAGUUUAACAUAAAGCUGUCUGUGCAAAGAAUAGGUGAUAGACUGCUAUUUUAACCAGGCUGAAAAGAAAAACAGAUGCAAGUGUCCCCUUUCAUGG	0.135 ratio
UGCAGCUGCUCCUGCCUCACUGUGAGGAAUGAAGAAAGAGGGGAAAAUGCGGGAAGACCCACACACACUACAAAAAUGGAGAGUAUCCAGGUCCUAGAGGAAUGCCAAAACCCCACUGCA	0.367 ratio
GACCACAUUGCUGGAGAUGAGGAUCACACAGAUGGAGUAGUAGCUUGUGCUGCUGGACUAAUAGGGGACUUAUGUACAGCAUUUGGGAAGGAUGUACUGAAAUUAGUAGAAGCUAGGCCA	0.788 ratio
GGUUAUGGUAAAAGAGGUCAAAUGAAACCCUCGAUUGAAUCCUAUUCUGAAGAUGAUGAAAGUAAGUUUUGCAGUUAUGGUCAAUACCCAGCCGACCUAGCCCAUAAAAUACAUAGUGCA	1.26 ratio
GCUGUGGAUCUGCUGACUCAGCUUUCUUCAAUACUAAAAACAUAUGGAAGUUCUUUGAAAACACCGUCAAUAGUUUAUAGACAGAGACUUUAUGAACUACUAAUUUUAUUACCUCCUGAG	0.46 ratio
GAUUUUGAUUAUACAACCAUGCAUAGGAUUAAACUGAAUGAUCGAAUGACAUUUCCCGAGGAACUAGAUAUGAGUACUUUUAUUGAUGUUGAAGAUGAGAAAUCUCCUCAGACUGAAAGU	2.71 ratio

Series 3 — technique: DHFR PCA, deep sequencing; medium: yeast; with: (+)-ABA 0.0091 µM; baseline: wild-type fitted maximum; reading: higher = stronger binding
Target: ABI1, truncated, D143A, DHFR fusion (Arabidopsis thaliana)
Setting: methotrexate growth selection, single substitutions
Parent: PYL1, truncated, DHFR fusion (Arabidopsis thaliana); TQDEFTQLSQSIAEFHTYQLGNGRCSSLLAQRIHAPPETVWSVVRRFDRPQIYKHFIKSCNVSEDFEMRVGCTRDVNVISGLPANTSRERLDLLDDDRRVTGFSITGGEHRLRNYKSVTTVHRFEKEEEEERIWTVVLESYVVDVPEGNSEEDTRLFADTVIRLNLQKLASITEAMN
Substitution	relative binding score
R88N	3.62%
E38S	1.96%
P36M	4.63%
S63A	52.9%
F47M	-5.04%
D95G	-9.04%
E174D	-1.38%
L156K	-1.49%

Single results of other studies
SMILES	target	read-out	action	concentration	baseline	endpoint	value
COc1cc2c(Nc3ccc(Br)cc3F)ncnc2cc1OCC1CCN(C)CC1	G protein-coupled receptor kinase 6 (GRK6, Homo sapiens, UniProt P43250)	enzyme activity	inhibitor	0.5 µM	control	remaining activity	104%

Some of these lines once more (series 1):
Substitution	binding fitness [natural log]
Q58S	0.0279
